Published values of several laboratories.
“And” joins repeats or separate records; there may be more than shown. ± marks the error that the study gave.

| Structure (SMILES) | test | test system | conditions | scale | measurement | result |
| --- | --- | --- | --- | --- | --- | --- |
| C=CC(=O)Nc1cc(Nc2nccc(-c3cn(C)c4ccccc34)n2)c(OC)cc1N(C)CCN(C)C | storage stability | human dried blood spot | 10 d, on ice, LLOQ level |  | recovery | 68.9% |
| NC1(C(=O)N[C@@H](CCO)c2ccc(Cl)cc2)CCN(c2nc[nH]c3nccc2-3)CC1 |  | metastatic CRPC patients | dose not given, grade 3 to 4, treatment-related, all doses, added: enzalutamide 160 mg daily |  | incidence of Fatigue | 0% |
| N[C@H]1C(O)O[C@H](CO)[C@@H](O)[C@@H]1O (stereo partly shown) |  | aqueous solution | 30 mM, added: glucose |  | osmolality | 26 mOsmol/kg |
| O=C(O)c1cccnc1Nc1cccc(C(F)(F)F)c1 | shake-flask, potentiometric | 1-octanol/water |  |  | logP | 3.7 |
| N#Cc1ccc2c(c1)[C@H]1CCCN(C(=O)c3ccc4[nH]cnc4c3)[C@H]1C2 |  | human males | 360 mg, day 15 |  | total testosterone level | 14.7 nmol/L |
| N[C@@H]1c2cccnc2[C@H](OC(=O)N2CCC(n3c(=O)[nH]c4ncccc43)CC2)CC[C@H]1c1cccc(F)c1F |  | human | oral, dose not given, added: itraconazole |  | decrease in CL/F | 74.3% |
| N#Cc1ccc2c(c1)[C@H]1CCCN(C(=O)c3ccc4[nH]cnc4c3)[C@H]1C2 |  | human, plasma | 20 mg once daily, day 2 |  | pre-dose plasma concentration | 268 nmol/L |
| Cc1cc(F)cc2c(CCC(=O)N[C@@H]3C(=O)NC[C@H]3O)c(-c3ccc(F)cc3)[nH]c12 |  | APOL1 G2 mouse model | 30 mg/kg twice daily, day 6 |  | AUC(0-12h) | 42900 ng·h/mL |
| COc1cc(Nc2ncc3c(n2)-c2ccc(Cl)cc2C(c2c(F)cccc2OC)=NC3)ccc1C(=O)O | measured: Sepsis, grade 4 | cancer patients, phase 1/2 | oral, dose not given, added: pembrolizumab |  | patients with adverse event | 4% |
| CCN1/C(=C/C(C)=O)Sc2ccc(F)cc21 |  | cynomolgus monkey | oral, 30 mg/kg, 24 h post-dose |  | systolic blood pressure | 110 ± 4 mmHg |
| C[C@H]1Oc2cc(cnc2N)-c2c(nn(C)c2C#N)CN(C)C(=O)c2ccc(F)cc21 |  | human patients, plasma | oral, dose not given, cycle 2 day 1, geometric mean, added: avelumab |  | dose-normalised AUClast | 49 ng·h/mL/mg |
| COc1cc(-c2nnc(SCC(N)=O)n2C)cc(OC)c1OC |  | octanol/buffer | pH 11, known kinase inactives set |  | logP | 0.25 |
| CCN(CC)CCNC(=O)c1c(C)[nH]c(/C=C2\C(=O)Nc3ccc(F)cc32)c1C |  | human, serum | 25 mg maintenance dose, 24 h post-dose |  | serum concentration | 30.5 ng/mL |
| OC[C@H]1O[C@@H](c2ccc(Cl)c(Cc3ccc(O[C@H]4CCOC4)cc3)c2)[C@H](O)[C@@H](O)[C@@H]1O |  | Japanese type 1 diabetes patients, blood | 10 mg, day 28 | reference: baseline | change in Non-HDL cholesterol | -0.42 mg/dL |
| O=C(Nc1nc2cccc(-c3ccc(CN4CCS(=O)(=O)CC4)cc3)n2n1)C1CC1 | measured: investigations | human rheumatoid arthritis patients | oral, 30 mg once daily, 4 weeks, regardless of relatedness |  | treatment-emergent adverse events | 11.8% |
| COc1cccc(OC)c1CNC(=O)c1ccc2c(c1)C(=NNc1ccc(S(N)(=O)=O)cc1)C(=O)N2 |  | octanol/buffer, 40 mM buffer | pH 11 |  | logP | 2.39 |
| COc1ccc2c(=O)n(C)c(-c3ccccc3)nc2c1 |  | male Sprague-Dawley rat, stomach | oral, 30 mg/kg, 2 h |  | tissue concentration | 1370 ng/g |
| [18F]c1ccc(-c2ccc3c(c2)[nH]c2ccncc23)cn1 | ex vivo biodistribution | B6SJL mouse, normal, hippocampus | intravenous, 30 min |  | SUV | 0.572 ± 0.316 |
| CC1(C)C(/C=C/C=C/C=C/C=C2\N(CCCCS(=O)(=O)O)c3ccc4ccccc4c3C2(C)C)=[N+](CCCCS(=O)(=O)[O-])c2ccc3ccccc3c21 |  | solution | 66 µM, day 15, 4 °C, dark, 800 nm |  | fluorescence intensity loss | ~60% |
| CC(C)n1ncc2c(C(=O)NCC3(C)CNC3)cc(C3CC3)nc21 | LC-MS/MS | Swiss Webster mouse pups, spinal cord | ip, 50 mg/kg daily, 7 days, 1 h after last dose |  | drug concentration | 595 ng/g and 635 ng/g and 830 ng/g and 540 ng/g and 273 ng/g |
| O=C(Nc1cnccc1Cl)N1CCN(Cc2ccc3c(c2)OC(F)(F)O3)CC1 | multiple ascending dose | young men | 75 mg, treatment-emergent adverse events |  | injection site pain incidence | 16.7% |
| O=c1ccc2ccc(O)cc2o1 |  | rat |  |  | scaled intrinsic clearance | 877 mL/min/kg |

| Structure (SMILES) | test | test system | conditions | scale | measurement | result |
| --- | --- | --- | --- | --- | --- | --- |
| Cl.[2H]C([2H])([2H])CC(=O)c1cnc(NC(=O)C2CC2)cc1Nc1cccc(-c2ncn(C([2H])([2H])[2H])n2)c1OC |  | human, fed | oral, 25 mg, single dose, liquid formulation, geometric mean |  | AUC(0-24 h) | 1550 ng·h/mL |
| Cc1cc(C)c(CNC(=O)c2cc(Cl)c3c(c2C)O[C@@](C)([C@H]2CC[C@H](N(C)C)CC2)O3)c(=O)[nH]1 | population PK model | human | oral |  | zero-order input duration | 1.22 h |
| O=C1NCCc2nc(OCc3cccc(F)c3)ccc21 | measured: loss of Escape | Sprague-Dawley rat male | oral, 100 mg/kg, 30 min | direction not given | Irwin test score | 0.4 |
| CCOc1ccc2ccc(=O)oc2c1 |  | Beagle dog, male, hepatocytes | 1 µM |  | hepatic clearance | > 28.4 mL/min/kg |
| CC(C)c1nc(N(C)S(C)(=O)=O)nc(-c2ccc(F)cc2)c1/C=C/[C@@H](O)C[C@@H](O)CC(=O)O |  | cynomolgus monkey hepatocytes | 4 °C, 10% monkey serum |  | passive uptake clearance | 0.6 µL/min/10⁶ cells |
| O=C1c2ccccc2C(=O)N1CCCc1nc(-c2cccc([N+](=O)[O-])c2)no1 |  | octanol/buffer | pH 11, known kinase inactives set |  | logP | 2.27 |
| Cc1ccc([C@@H]2O[C@H](CO)[C@@H](O)[C@H](O)[C@H]2O)cc1Cc1ccc(-c2ccc(F)cc2)s1 |  | Japanese type 2 diabetes patients | 200 mg, day 2, 24 h urine collection | reference: baseline | urinary sodium excretion change | -14.4 mEq |
| CC(C)(C(=O)N1CCOc2c(C#N)cncc2C1)C(F)F |  | human, both sexes, plasma | oral, 15 mg twice daily, 14 days, multiple ascending dose | reference: day 14 over day 1 | accumulation ratio Cmax | 1.24 |
| Cc1nc2cccc(OCC(C)(C)C(=O)NC(C)C)c2c(N)c1C(=O)O |  | Sprague-Dawley rat, plasma | oral, 10 mg/kg, day 7, 7-day repeated dosing | reference: female over male | Cmax ratio female over male | 2.01 ± 0.75 |
| NS(=O)(=O)c1ccc(NN=C2C(=O)Nc3ccc(C(=O)O)cc32)cc1 |  | octanol/buffer, 40 mM buffer | pH 11 |  | logP | -1.5 |
| Cc1cc(C)c(CNC(=O)c2cc(Cl)c3c(c2C)O[C@@](C)([C@H]2CC[C@H](N(C)C)CC2)O3)c(=O)[nH]1 | measured: unbound drug | human | oral, 200 mg, cycle 1 day 15 |  | accumulation ratio of AUCtau | 1.27 |
| CC1=C(c2cccc(O)c2)[C@H](c2ccc(OCCN3CC(CF)C3)cc2)Oc2ccc(O)cc21 |  | human, plasma | oral, 1000 mg single dose, geometric mean |  | AUC(0-24 h) | 1100 ng·h/mL |
| COc1cc(/C=C/C(=O)OC2C(O)CC(O)(C(=O)O)CC2O)ccc1O (stereo not shown) |  | human, cerebrospinal fluid | concentration not given, median |  | CSF concentration | 1.8 nM |
| Cc1cc(/C=C/C#N)cc(C)c1Nc1ccnc(Nc2ccc(C#N)cc2)n1 |  | human patients, all-treated set | intramuscular, dose not given, long-acting injection, median |  | time to injection-site reaction resolution | 3 days |
| C[C@@H](Oc1ccc(S(C)(=O)=O)cc1C(=O)N1C[C@@H]2C[C@]2(c2cc(C(F)(F)F)on2)C1)C(F)(F)F | LC-MS/MS | elderly human subjects, plasma | oral, 25 mg once daily, steady state, multiple doses |  | Vz/F | 338 L |
| O=C(Nc1ccc(S(=O)(=O)Nc2ncccn2)cc1)c1c(Cl)cccc1Cl |  | octanol/buffer | pH 11, known kinase inactives set |  | logP | -0.53 |
| C=CC(=O)N(C)CCOc1c(N)ncnc1-c1cc(F)cc(NC(=O)c2ccc(C3CC3)cc2F)c1C |  | human, plasma | oral, 100 mg once daily, day 12 |  | AUC | 485 ng·h/mL |
| CN(C(=O)n1cnc(-c2ccc[n+]([O-])c2)c1)[C@H]1CC[C@H](O)CC1 |  | rat, cortex | oral, 10 mg/kg daily for 5 days, 48 h |  | tissue concentration | 8.5 ± 0.1 ng/g |
| CCn1c(=O)c(-c2cc(NC(=O)Nc3ccccc3)c(F)cc2Br)cc2cnc(NC)cc21 |  | human plasma | 150 ng/mL, 1 months, -20 °C, low QC |  | long-term stability accuracy | 8.29% |
| COc1cccc(OC)c1NS(=O)(=O)c1ccc(N/C=C2\C(=O)Nc3ccc4ncsc4c32)cc1 |  | octanol/buffer | pH 11 |  | logP | 2.69 |
| Cn1c(=O)oc2ccc(-c3ccc(C[C@@H](C#N)NC(=O)[C@@H]4CNCCCO4)cc3)cc21 |  | human, mild renal impairment, plasma | oral, 25 mg single dose, mean |  | Vd/F | 397 L |

A few entries again:
| Structure (SMILES) | test | test system | conditions | scale | measurement | result |
| --- | --- | --- | --- | --- | --- | --- |
| C[C@@H](Oc1ccc(S(C)(=O)=O)cc1C(=O)N1C[C@@H]2C[C@]2(c2cc(C(F)(F)F)on2)C1)C(F)(F)F | LC-MS/MS | elderly human subjects, plasma | oral, 25 mg once daily, steady state, multiple doses |  | Vz/F | 338 L |
| O=C(Nc1ccc(S(=O)(=O)Nc2ncccn2)cc1)c1c(Cl)cccc1Cl |  | octanol/buffer | pH 11, known kinase inactives set |  | logP | -0.53 |
| C=CC(=O)N(C)CCOc1c(N)ncnc1-c1cc(F)cc(NC(=O)c2ccc(C3CC3)cc2F)c1C |  | human, plasma | oral, 100 mg once daily, day 12 |  | AUC | 485 ng·h/mL |
| CN(C(=O)n1cnc(-c2ccc[n+]([O-])c2)c1)[C@H]1CC[C@H](O)CC1 |  | rat, cortex | oral, 10 mg/kg daily for 5 days, 48 h |  | tissue concentration | 8.5 ± 0.1 ng/g |
| CCn1c(=O)c(-c2cc(NC(=O)Nc3ccccc3)c(F)cc2Br)cc2cnc(NC)cc21 |  | human plasma | 150 ng/mL, 1 months, -20 °C, low QC |  | long-term stability accuracy | 8.29% |
| COc1cccc(OC)c1NS(=O)(=O)c1ccc(N/C=C2\C(=O)Nc3ccc4ncsc4c32)cc1 |  | octanol/buffer | pH 11 |  | logP | 2.69 |
